Results gathered from unrelated publications.
Protocols differ between the studies behind these lines. pIC50, pKd: −log10 of the molar value.
HLA class I histocompatibility antigen, A alpha chain allele A*33:03: HLA class I histocompatibility antigen, A alpha chain, allele A*33:03 (Homo sapiens, UniProt P04439)
Ywhag: 14-3-3 protein gamma (Ywhag, Mus musculus, UniProt P61982)
CCR1: C-C chemokine receptor type 1 (CCR1, Homo sapiens, UniProt P32246)

QHVKITDFGR  HLA class I surface increase (HLA class I histocompatibility antigen, A alpha chain allele A*33:03; MHC class I stabilisation, flow cytometry; peptide, TAP2-knockout TISI monoallelic cells; 25 µM, 18 h, 37 °C, with: β2-microglobulin 3 µg/mL; relative to: DMSO): 25.4%
Pentraxin 3  pKd (Ly96 (Mus musculus, UniProt Q9JHF9); binding, fluorescence titration; pH 7.4, 25 °C, with: BODIPY FL-labelled alarmin): 6.36
LPPGAVPPGAHFDPFGPIGT (PI31(232–251) R242H)  inhibition (Proteasome subunit beta type-3/PSMB7 (Homo sapiens, UniProt P49720+Q99436); trypsin-like activity, inhibitor; peptide, human constitutive proteasome; 10 nM, with: Boc-LRR-AMC): decreased
galanin  conversion (rebH (Lentzea aerocolonigenes, UniProt Q8KHZ8, A442V/K145M/M71V/N467T/N470S/S2P); substrate, HPLC): 21.4%
TEYKLVVVGAV  HLA class I surface increase (HLA class I histocompatibility antigen, A alpha chain allele A*33:03; MHC class I stabilisation, flow cytometry; peptide, TAP2-knockout TISI monoallelic cells; 25 µM, 18 h, 37 °C, with: β2-microglobulin 3 µg/mL; relative to: DMSO): 0.3%
TRRRFLSESDEL (TLE6(133-144))  Kd (Ywhag; binding, isothermal titration calorimetry; peptide; pH 7.5, 25 °C): not detected
STIM1  pKd (ERO1-like protein alpha (Homo sapiens, UniProt Q96HE7); bio-layer interferometry): 5.59
MIP-1alpha  Hill coefficient (CCR1; radioligand binding, agonist; reference compound): 0.7
SVWLRKETRV  binding intensity (human SCRIB PDZ3-4 tandem (MBP fusion); automated holdup; peptide, crude extract; concentration not given, corrected by standard peak, unit not given; relative to: biotin control resin, higher = stronger binding): 0.725
GFGLATVKSR  HLA class I surface increase (HLA class I histocompatibility antigen, A alpha chain allele A*33:03; MHC class I stabilisation, flow cytometry; peptide, TAP2-knockout TISI monoallelic cells; 25 µM, 18 h, 37 °C, with: β2-microglobulin 3 µg/mL; relative to: DMSO): -0.5%
HMGB1  pKd (Advanced glycosylation end product-specific receptor (Ager, Mus musculus, UniProt Q62151); binding, fluorescence titration; pH 7.4, 25 °C, with: BODIPY FL-labelled alarmin): 6.63
GSGAGICTIV  binding intensity (human SCRIB PDZ3-4 tandem (MBP fusion); automated holdup; peptide, purified PDZ protein; concentration not given, unit not given; relative to: biotin control resin, higher = stronger binding): 0.225
daratumumab  pKd (CD38 (Homo sapiens, UniProt P28907); binding, ELISA): 9.14
QPRHRNSLSDSA (TLE6(203–214) peptide)  Kd (Ywhag; binding, isothermal titration calorimetry; peptide; pH 7.5, 25 °C): not detected
MIP-1α  pIC50 (CCR1; binding, agonist radioligand displacement): 10.09
ITDFGRAKL  HLA class I surface increase (HLA class I histocompatibility antigen, A alpha chain, allele A*02:01 (Homo sapiens, UniProt P04439); MHC class I stabilisation, flow cytometry; peptide, TAP2-knockout TISI monoallelic cells; 25 µM, 18 h, 37 °C, with: β2-microglobulin 3 µg/mL; relative to: DMSO): 0.1%
sacituzumab  pKd (Tumor-associated calcium signal transducer 2 (TACSTD2, Homo sapiens, UniProt P09758); binding, bio-layer interferometry): 9.48

Repeated from above:
LPPGAVPPGAHFDPFGPIGT (PI31(232–251) R242H)  inhibition (Proteasome subunit beta type-3/PSMB7 (Homo sapiens, UniProt P49720+Q99436); trypsin-like activity, inhibitor; peptide, human constitutive proteasome; 10 nM, with: Boc-LRR-AMC): decreased
galanin  conversion (rebH (Lentzea aerocolonigenes, UniProt Q8KHZ8, A442V/K145M/M71V/N467T/N470S/S2P); substrate, HPLC): 21.4%
TEYKLVVVGAV  HLA class I surface increase (HLA class I histocompatibility antigen, A alpha chain allele A*33:03; MHC class I stabilisation, flow cytometry; peptide, TAP2-knockout TISI monoallelic cells; 25 µM, 18 h, 37 °C, with: β2-microglobulin 3 µg/mL; relative to: DMSO): 0.3%
